Published values gathered from unrelated publications.
Protocols differ between the studies behind these lines. Numbers after ± are the reported error.
Target: Transient receptor potential cation channel subfamily V member 1 (TRPV1, Homo sapiens, UniProt Q8NER1)
Chain of UniProt Q8NER1 (whole entry, looked up): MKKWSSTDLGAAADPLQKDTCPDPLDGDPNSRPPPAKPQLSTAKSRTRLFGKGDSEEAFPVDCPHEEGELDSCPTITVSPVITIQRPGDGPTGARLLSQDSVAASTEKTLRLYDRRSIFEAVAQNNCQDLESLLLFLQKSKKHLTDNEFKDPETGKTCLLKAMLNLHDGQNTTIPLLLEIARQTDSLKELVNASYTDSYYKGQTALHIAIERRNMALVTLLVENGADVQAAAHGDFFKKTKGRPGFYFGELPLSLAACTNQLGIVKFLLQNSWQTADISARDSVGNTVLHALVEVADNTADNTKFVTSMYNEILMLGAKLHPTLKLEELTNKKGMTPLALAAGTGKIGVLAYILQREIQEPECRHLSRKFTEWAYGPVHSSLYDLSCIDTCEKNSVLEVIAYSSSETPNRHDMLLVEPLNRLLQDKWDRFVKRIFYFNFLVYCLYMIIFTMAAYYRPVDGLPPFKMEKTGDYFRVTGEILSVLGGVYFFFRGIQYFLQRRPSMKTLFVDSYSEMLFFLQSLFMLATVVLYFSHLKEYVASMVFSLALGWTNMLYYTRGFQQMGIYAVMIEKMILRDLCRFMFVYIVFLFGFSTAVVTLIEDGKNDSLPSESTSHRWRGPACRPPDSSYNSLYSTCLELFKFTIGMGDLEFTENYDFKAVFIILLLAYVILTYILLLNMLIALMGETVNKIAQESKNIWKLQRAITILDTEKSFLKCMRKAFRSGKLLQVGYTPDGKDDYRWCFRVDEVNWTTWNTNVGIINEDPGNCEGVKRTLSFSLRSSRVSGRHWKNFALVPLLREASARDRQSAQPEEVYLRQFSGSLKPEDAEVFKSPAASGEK

| SMILES | test | system | conditions | how to read | endpoint | result |
| --- | --- | --- | --- | --- | --- | --- |
| CC1CCN(c2nc(C(F)(F)F)ccc2CNC(=O)NCc2ccc(CNS(C)(=O)=O)c(F)c2)CC1 | 45Ca2+ uptake, agonist | CHO expressing human TRPV1 | – | baseline: capsaicin 1 µM maximal response | EC50 | > 3 µM |
| CN(C)C1(Cc2ccccc2)CCN(c2cc(C(F)(F)F)ccc2CNC(=O)Nc2cccc3ccc(O)cc23)CC1 | 45Ca2+ uptake, antagonist | CHO expressing human TRPV1 | with: 30 nM capsaicin | – | Ki | 0.0089 µM |
| CC(C(=O)NCc1ccc(C(F)(F)F)nc1Oc1ccccc1)c1ccc(NS(C)(=O)=O)c(F)c1 (stereo not drawn) | calcium influx, antagonist, FLIPR | CHO | with: low pH | – | IC50 | 1 to 10 µM |
| [3H]CC1([3H])CCN(c2nc(C(F)(F)F)ccc2CNC(=O)Nc2cccc3c2OCC(=O)N3)CC1 | radioligand binding | – | no PMA or cyclosporin A | – | Kd | 0.000534 ± 9.7e-05 µM |
| Cc1cccc(N(C(=O)NCc2ccc(C(F)(F)F)nc2N2CCC(C)CC2)c2ccc(NS(C)(=O)=O)c(F)c2)c1 | 45Ca2+ uptake, agonist | CHO expressing human TRPV1 | – | baseline: capsaicin 1 µM maximal response | EC50 | > 3 µM |
| CCCC(CCC)Oc1nc(C(F)(F)F)ccc1CNC(=O)C(C)c1ccc(NS(C)(=O)=O)c(F)c1 (stereo not drawn) | calcium influx, antagonist, FLIPR | CHO cells | with: low pH | – | IC50 | 1 to 10 µM |
| CN(C)C1(Cc2ccccc2)CCN(c2cc(C(F)(F)F)ccc2CNC(=O)Nc2cccc3c2CC(O)CC3)CC1 (stereo not drawn) | 45Ca2+ uptake, antagonist | CHO expressing human TRPV1 | with: 30 nM capsaicin | – | Ki | 0.0101 µM |
| COc1nc(C(F)(F)F)ccc1CNC(=O)C(C)c1ccc(NS(C)(=O)=O)c(F)c1 (stereo not drawn) | calcium influx, antagonist, FLIPR | CHO | with: low pH | – | IC50 | 1 to 10 µM |
| CC1CCN(c2nc(C(F)(F)F)ccc2CNC(=O)C(C)c2ccc(NS(C)(=O)=O)c(F)c2)CC1 (stereo not drawn) | 45Ca2+ uptake, agonist | CHO expressing human TRPV1 | – | baseline: capsaicin 1 µM maximal response | EC50 | > 3 µM |

For quick reference, copied from above:
| SMILES | test | system | conditions | how to read | endpoint | result |
| --- | --- | --- | --- | --- | --- | --- |
| CN(C)C1(Cc2ccccc2)CCN(c2cc(C(F)(F)F)ccc2CNC(=O)Nc2cccc3c2CC(O)CC3)CC1 (stereo not drawn) | 45Ca2+ uptake, antagonist | CHO expressing human TRPV1 | with: 30 nM capsaicin | – | Ki | 0.0101 µM |
